{"data": "Measurements pooled from the literature", "method": "steady-state kinetics", "B1": "UGT88A1 V18R (Arabidopsis thaliana, UniProt Q9LK73); chain MGEEAIVLYPAPPIGHLRSMVELGKTILSKNPSLSIHIILVPPPYQPESTATYISSVSSSFPSITFHHLPAVTPYSSSSTSRHHHESLLLEILCFSNPSVHRTLFSLSRNFNVRAMIIDFFCTAVLDITADFTFPVYFFYTSGAACLAFSFYLPTIDETTPGKNLKDIPTVHIPGVPPMKGSDMPKAVLERDDEVYDVFIMFGKQLSKSSGIIINTFDALENRAIKAITEELCFRNIYPIGPLIVNGRIEDRNDNKAVSCLNWLDSQPEKSVVFLCFGSLGLFSKEQVIEIAVGLEKSGQRFLWVVRNPPELEKTELDLKSLLPEGFLSRTEDKGMVVKSWAPQVPVLNHKAVGGFVTHCGWNSILEAVCAGVPMVAWPLYAEQRFNRVMIVDEIKIAISMNESETGFVSSTEVEKRVQEIIGECPVRERTMAMKNAAELALTETGSSHTALTTLLQSWSPK", "B2": "enzyme (Arabidopsis thaliana, UniProt Q9LTH2); chain MEEKQVKETRIVLVPVPAQGHVTPMMQLGKALHSKGFSITVVLTQSNRVSSSKDFSDFHFLTIPGSLTESDLQNLGPQKFVLKLNQICEASFKQCIGQLLHEQCNNDIACVVYDEYMYFSHAAVKEFQLPSVVFSTTSATAFVCRSVLSRVNAESFLIDMKDPETQDKVFPGLHPLRYKDLPTSVFGPIESTLKVYSETVNTRTASAVIINSASCLESSSLARLQQQLQVPVYPIGPLHITASAPSSLLEEDRSCVEWLNKQKSNSVIYISLGSLALMDTKDMLEMAWGLSNSNQPFLWVVRPGSIPGSEWTESLPEEFNRLVSERGYIVKWAPQMEVLRHPAVGGFWSHCGWNSTVESIGEGVPMICRPFTGDQKVNARYLERVWRIGVQLEGDLDKETVERAVEWLLVDEEGAEMRKRAIDLKEKIETSVRSGGSSCSSLDDFVNSM", "B3": "MTRR A129T (Homo sapiens, UniProt Q9UBK8); chain MRRFLLLYATQQGQAKAIAEEICEQAVVHGFSADLHCISESDKYDLKTETAPLVVVVSTTGTGDPPDTARKFVKEIQNQTLPVDFFAHLRYGLLGLGDSEYTYFCNGGKIIDKRLQELGARHFYDTGHTDDCVGLELVVEPWIAGLWPALRKHFRSSRGQEEISGALPVASPASSRTDLVKSELLHIESQVELLRFDDSGRKDSEVLKQNAVNSNQSNVVIEDFESSLTRSVPPLSQASLNIPGLPPEYLQVHLQESLGQEESQVSVTSADPVFQVPISKAVQLTTNDAIKTTLLVELDISNTDFSYQPGDAFSVICPNSDSEVQSLLQRLQLEDKREHCVLLKIKADTKKKGATLPQHIPAGCSLQFIFTWCLEIRAIPKKAFLRALVDYTSDSAEKRRLQELCSKQGAADYSRFVRDACACLLDLLLAFPSCQPPLSLLLEHLPKLQPRPYSCASSSLFHPGKLHFVFNIVEFLSTATTEVLRKGVCTGWLALLVASVLQPNIHASHEDSGKALAPKISISPRTTNSFHLPDDPSIPIIMVGPGTGIAPFIGFLQHREKLQEQHPDGNFGAMWLFFGCRHKDRDYLFRKELRHFLKHGILTHLKVSFSRDAPVGEEEAPAKYVQDNIQLHGQQVARILLQENGHIYVCGDAKNMAKDVHDALVQIISKEVGVEKLEAMKTLATLKEEKRYLQDIWS", "B4": "speck S221A (Drosophila melanogaster, UniProt Q94521); chain MEDALTVSGKPAACPVDQDCPYTIELIQPEDGEAVIAMLKTFFFKDEPLNTFLDLGECKELEKYSLKPLPDNCSYKAVNKKGEIIGVFLNGLMRRPSPDDVPEKAADSCEHPKFKKILSLMDHVEEQFNIFDVYPDEELILDGKILSVDTNYRGLGIAGRLTERAYEYMRENGINVYHVLCSSHYAARVMEKLGFHEVFRMQFADYKPQGEVVFKPAAPHVGIQVMAKEVGPAKAAQTKL", "B5": "FMO3 V257M (Homo sapiens, UniProt P31513); chain GKKVAIIGAGVSGLASIRSCLEEGLEPTCFEKSNDIGGLWKFSDHAEEGRASIYKSVFSNSSKEMMCFPDFPFPDDFPNFMHNSKIQEYIIAFAKEKNLLKYIQFKTFVSSVNKHPDFATTGQWDVTTERDGKKESAVFDAVMVCSGHHVYPNLPKESFPGLNHFKGKCFHSRDYKEPGVFNGKRVLVVGLGNSGCDIATELSRTAEQVMISSRSGSWVMSRVWDNGYPWDMLLVTRFGTFLKNNLPTAISDWLYMKQMNARFKHENYGLMPLNGVLRKEPVFNDELPASILCGIVSVKPNVKEFTETSAIFEDGTIFEGIDCVIFATGYSFAYPFLDESIIKSRNNEIILFKGVFPPLLEKSTIAVIGFVQSLGAAIPTVDLQSRWAAQVIKGTCTLPSMEDMMNDINEKMEKKRKWFGKSETIQTDYIVYMDELSSFIGAKPNIPWLFLTDPKLAMEVYFGPCSPYQFRLVGPGQWPGARNAILTQWDRSLKPMQTRVVGRLQKPCFFFHWLKLFAIPILLIAVFLVLT", "B6": "enzyme (UniProt A0A8H4KFE3); chain MATMQKEFTAYQARFEELKKSDNPYGRGIAWVQGELVPLHEARIPLLDQGFLHSDLTYDVPAVWDGKIFRLDDHIARLDASCKKIRLQMPMSHEAMKQTLCDMLAKSGIRDAFIQLIVTRGIKGVRESEPHEQVNTLYMFIQPYVWVMEPEMQLTGGHAIVARTVRRTPPGSIDPTVKNHQWGDLTRAMHEARDRGAKYPFLTDGDTNLTEGSGFNMCFIKDGKLYTADRGVLEGITRKSVFDVARANNIEIRCETVPVAIAYEADEIFMCTTAGGVMPITTLDGAPVKDGKIGPITRTIWDGYWAMHYDPAYTIAVKYD", "B7": "enzyme (Bacillus pumilus, UniProt A8FFI9); chain EARSIAWSVDEFFKNREGTFVIQEVKEKSPWVYNKKRAKERFAPQSTFKVANALIGLQTGAVRDEYDIKYWDGVKREIDNWNRDHTLGSGMRDSVVWYYQAMARDIGEERMNHWVKAIHYGNKDISGGIDQFWLSSTLRISPIEQVRFLKQLYEETLPFDLKNMRTVKRMMVQEEEKHATLYGKTGSGSDIGWYVGFIKHEHKTYILATNIKGTGIEAKDITYRILKKYHLMEASV", "B8": "alanine racemase H127A/H166A/H200A (Geobacillus stearothermophilus, UniProt P10724); chain MNDFHRDTWAEVDLDAIYDNVENLRRLLPDDTHIMAVVKANAYGHGDVQVARTALEAGASRLAVAFLDEALALREKGIEAPILVLGASRPADAALAAQQRIALTVFRSDWLEEASALYSGPFPIHFALKMDTGMGRLGVKDEEETKRIVALIERHPHFVLEGLYTAFATADEVNTDYFSYQYTRFLHMLEWLPSRPPLVACANSAASLRFPDRTFNMVRFGIAMYGLAPSPGIKPLLPYPLKEAFSLHSRLVHVKKLQPGEKVSYGATYTAQTEEWIGTIPIGYADGWLRRLQHFHVLVDGQKAPIVGRICMDQCMIRLPGPLPVGTKVTLIGRQGDEVISIDDVARHLETINYEVPCTISYRVPRIFFRHKRIMEVRNAIGRGESSA", "note": "Compare with care: the assays were run in different laboratories.", "chain of UniProt Q92UV7 (whole entry, looked up)": "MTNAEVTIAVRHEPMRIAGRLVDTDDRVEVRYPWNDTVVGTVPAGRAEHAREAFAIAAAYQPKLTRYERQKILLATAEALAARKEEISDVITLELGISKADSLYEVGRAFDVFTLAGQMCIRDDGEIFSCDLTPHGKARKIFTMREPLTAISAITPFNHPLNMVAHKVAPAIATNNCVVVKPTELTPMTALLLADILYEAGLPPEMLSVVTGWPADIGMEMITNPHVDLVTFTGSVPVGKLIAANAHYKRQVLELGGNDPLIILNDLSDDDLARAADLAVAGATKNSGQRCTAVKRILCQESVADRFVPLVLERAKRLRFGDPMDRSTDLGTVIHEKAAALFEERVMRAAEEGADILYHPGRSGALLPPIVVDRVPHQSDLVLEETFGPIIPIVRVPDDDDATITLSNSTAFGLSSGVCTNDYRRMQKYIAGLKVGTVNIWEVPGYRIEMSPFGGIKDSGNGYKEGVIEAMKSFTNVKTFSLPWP", "chain of UniProt O60656 (whole entry, looked up)": "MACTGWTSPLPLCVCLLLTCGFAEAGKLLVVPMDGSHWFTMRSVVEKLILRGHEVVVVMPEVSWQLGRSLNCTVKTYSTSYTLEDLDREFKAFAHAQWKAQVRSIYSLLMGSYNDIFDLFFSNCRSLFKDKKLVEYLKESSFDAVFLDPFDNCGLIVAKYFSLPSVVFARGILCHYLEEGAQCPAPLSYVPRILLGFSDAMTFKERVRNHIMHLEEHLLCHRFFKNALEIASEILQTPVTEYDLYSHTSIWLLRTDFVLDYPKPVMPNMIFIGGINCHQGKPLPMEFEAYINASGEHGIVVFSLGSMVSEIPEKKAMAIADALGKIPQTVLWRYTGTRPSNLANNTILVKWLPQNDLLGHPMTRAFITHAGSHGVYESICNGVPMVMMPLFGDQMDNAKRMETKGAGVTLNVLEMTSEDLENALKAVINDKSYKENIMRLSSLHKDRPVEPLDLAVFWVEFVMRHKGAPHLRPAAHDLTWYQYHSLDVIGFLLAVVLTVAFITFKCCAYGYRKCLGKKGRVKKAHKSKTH", "chain of UniProt P49419 (whole entry, looked up)": "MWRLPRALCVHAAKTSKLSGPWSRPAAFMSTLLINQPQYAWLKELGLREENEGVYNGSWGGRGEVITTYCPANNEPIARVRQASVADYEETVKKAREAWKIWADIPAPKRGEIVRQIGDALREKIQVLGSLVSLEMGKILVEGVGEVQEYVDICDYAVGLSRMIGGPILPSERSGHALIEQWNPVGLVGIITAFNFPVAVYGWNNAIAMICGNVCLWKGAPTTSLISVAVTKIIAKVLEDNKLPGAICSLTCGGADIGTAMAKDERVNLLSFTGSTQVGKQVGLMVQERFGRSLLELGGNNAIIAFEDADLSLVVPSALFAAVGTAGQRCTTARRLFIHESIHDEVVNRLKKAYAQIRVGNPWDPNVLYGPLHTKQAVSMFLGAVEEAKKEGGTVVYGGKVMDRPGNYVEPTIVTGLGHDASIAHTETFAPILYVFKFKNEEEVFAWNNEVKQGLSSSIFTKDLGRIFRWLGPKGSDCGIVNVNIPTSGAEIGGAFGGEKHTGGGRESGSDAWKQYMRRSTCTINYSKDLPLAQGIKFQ"}
{"Substance": "UGT1A9 (Homo sapiens, UniProt O60656)", "substrate": "Cc1cc(=O)oc2cc(O)ccc12", "pH": "pH 7.4", "temperature": "37 °C", "Km [µM]": 12}
{"Substance": "B1 (UGT88A1 V18R)", "substrate": "O=c1c(O)c(-c2ccc(O)c(O)c2)oc2cc(O)cc(O)c12", "pH": "pH 6.8", "temperature": "37 °C", "added": "UDP-glucose", "Km [µM]": 200}
{"Substance": "enzyme (Sinorhizobium meliloti, UniProt Q92UV7)", "substrate": "O=CCP(=O)(O)O", "pH": "pH 7.5", "temperature": "30 °C", "Km [µM]": 3.2}
{"Substance": "ALDH7A1 (Homo sapiens, UniProt P49419)", "substrate": "N[C@@H](CCCC=O)C(=O)O", "pH": "pH 8", "temperature": "20 °C", "added": "NAD+ 2.5 mM", "Km [µM]": 600}
{"Substance": "B2 (enzyme)", "substrate": "O=c1ccn([C@@H]2O[C@H](CO[P@@](=O)(O)O[P@@](=O)(O)O[C@H]3O[C@H](CO)[C@@H](O)[C@H](O)[C@H]3O)[C@@H](O)[C@H]2O)c(=O)[nH]1", "pH": "pH 7.5", "temperature": "25 °C", "Km [µM]": 8.75}
{"Substance": "B3 (MTRR A129T)", "substrate": "COc1cccc2c1C(=O)c1c(O)c3c(c(O)c1C2=O)C[C@@](O)(C(=O)CO)C[C@@H]3O[C@H]1C[C@H](N)[C@H](O)[C@H](C)O1", "pH": "pH 7.5", "temperature": "37 °C", "notes": "substoichiometric FMN", "added": "NADPH", "Km [µM]": 137}
{"Substance": "Ptb (Listeria monocytogenes, UniProt Q8Y7B7)", "substrate": "CCC(=O)SCCNC(=O)CCNC(=O)[C@H](O)C(C)(C)COP(=O)(O)OP(=O)(O)OC[C@H]1O[C@@H](n2cnc3c(N)ncnc32)[C@H](O)[C@@H]1OP(=O)(O)O", "pH": "pH 7.5", "temperature": "25 °C", "notes": "apparent", "Km [µM]": 191}
{"Substance": "B4 (speck S221A)", "substrate": "CC(=O)SCCNC(=O)CCNC(=O)[C@H](O)C(C)(C)COP(=O)(O)OP(=O)(O)OC[C@H]1O[C@@H](n2cnc3c(N)ncnc32)[C@H](O)[C@@H]1OP(=O)(O)O", "pH": "pH 7.2", "temperature": "30 °C", "Km [µM]": 390}
{"Substance": "B5 (FMO3 V257M)", "substrate": "CN1CCC[C@H]1c1cccnc1", "matrix": "HEK293 microsomes", "temperature": "37 °C", "notes": "not purified", "added": "NADPH regenerating system", "Km [µM]": 1800}
{"Substance": "B6 (enzyme)", "substrate": "CC(C)(C)OC(=O)N1CCCC(=O)C1", "pH": "pH 7", "temperature": "30 °C", "Km [µM]": 670}
{"Substance": "B7 (enzyme)", "substrate": "C[C@@H](O)[C@H]1C(=O)N2C(C(=O)O)=C(SCCN=CN)C[C@H]12", "pH": "pH 7", "Km [µM]": 6.6}
{"Substance": "B8", "substrate": "C[C@@H](N)C(=O)O", "pH": "pH 9", "temperature": "room temperature", "added": "NAD+ 10 mM", "Km [µM]": 800}
{"note": "Some of these lines once more:"}
{"Substance": "B2 (enzyme)", "substrate": "O=c1ccn([C@@H]2O[C@H](CO[P@@](=O)(O)O[P@@](=O)(O)O[C@H]3O[C@H](CO)[C@@H](O)[C@H](O)[C@H]3O)[C@@H](O)[C@H]2O)c(=O)[nH]1", "pH": "pH 7.5", "temperature": "25 °C", "Km [µM]": 8.75}
{"Substance": "ALDH7A1 (Homo sapiens, UniProt P49419)", "substrate": "N[C@@H](CCCC=O)C(=O)O", "pH": "pH 8", "temperature": "20 °C", "added": "NAD+ 2.5 mM", "Km [µM]": 600}
